Assay results of several laboratories.
Compare with care: the assays were run in different laboratories. ± marks the error that the study gave.
Organism: HIV-1
Effect on: viral replication

With C=C(C)[C@@H]1CC[C@]2(C(=O)OCCC)CC[C@]3(C)[C@H](CC[C@@H]4[C@@]5(C)CC[C@H](O)C(C)(C)[C@@H]5CC[C@]43C)[C@@H]12 the IC50 was over 10000 nM (refers to: p24; MT4, NL4-3; 96 h).
The EC50 of C[C@H](NP(=O)(OCCOCn1cnc2c(=O)[nH]c(N)nc21)Oc1ccccc1)C(=O)OCc1ccccc1 (some centres unmarked) is reported as 1000 ± 400 nM (refers to: p24 antigen; LAI.04, human tonsil tissue ex vivo; 12 d).
For Nc1ncnc2c1ncn2[C@H]1CC[C@@H](CO)O1, the EC90 was 3800 nM (refers to: reverse transcriptase activity; human PBM cells, LAI).
The IC50 of C=C(C)[C@@H]1CC[C@]2(C(=O)OCOC)CC[C@]3(C)[C@H](CC[C@@H]4[C@@]5(C)CC[C@H](OCOC)C(C)(C)[C@@H]5CC[C@]43C)[C@@H]12 is reported as over 10000 nM (refers to: p24; MT4, NL4-3; 96 h).
Cc1ccc(S(=O)(=O)NCCNC(=O)c2[nH]c3ccc(Cl)cc3c2S(=O)(=O)c2cc(C)cc(C)c2)cc1 has an EC50 of 45 ± 7 nM (MT-4, IIIB).
C=C(C)[C@@H]1CC[C@]2(C(=O)OCOCCOC)CC[C@]3(C)[C@H](CC[C@@H]4[C@@]5(C)CC[C@H](O)C(C)(C)[C@@H]5CC[C@]43C)[C@@H]12 has an IC50 of over 10000 nM (refers to: p24; MT4, NL4-3; 96 h).
CN(C)CCCn1c(=O)c2cc(Br)c3c(=O)n(CCCN(C)C)c(=O)c4c5[nH]c6ccccc6[nH]c5c(c1=O)c2c34 gave a therapeutic window of 7.8 to 125 nM (TZM-bl, NL4-3; range active at 80% cytotoxicity or less).
Cc1cc(C)cc(S(=O)(=O)c2c(C(=O)NCCNS(=O)(=O)C3CC3)[nH]c3ccc(Cl)cc23)c1 has an EC50 of 4 nM (MT-4, IIIB).
CN(C)CCCn1c(=O)c2cc(Br)c3c(=O)n(CCCN(C)C)c(=O)c4c5[nH]c6ccc([N+](=O)[O-])cc6[nH]c5c(c1=O)c2c34 gave a therapeutic window of 15.6 to 250 nM (TZM-bl, NL4-3; range active at 80% cytotoxicity or less).
For Cc1cc(C)cc(S(=O)(=O)c2c(C(=O)NCCCCCNS(=O)(=O)c3ccc(Br)cc3)[nH]c3ccc(Cl)cc23)c1, the EC50 was 75 ± 30 nM (MT-4, IIIB).
The IC50 of CN(C)CCCn1c(=O)c2ccc3c(=O)n(CCCN(C)C)c(=O)c4c5[nH]c6ccccc6[nH]c5c(c1=O)c2c34 is reported as under 25 nM (LTR luciferase reporter; TZM-bl, NL4-3; 48 h).
C=C(C)[C@@H]1CC[C@]2(C(=O)OCCCCCC)CC[C@]3(C)[C@H](CC[C@@H]4[C@@]5(C)CC[C@H](O)C(C)(C)[C@@H]5CC[C@]43C)[C@@H]12 has an IC50 of over 10000 nM (refers to: p24; MT4, NL4-3; 96 h).
CN(C)c1ccc(Nc2c3ccc(NC(=O)CCN4CCCC4)cc3nc3cc(NC(=O)CCN4CCCC4)ccc23)cc1.Cl.Cl.Cl gave a therapeutic window of 3000 to 12000 nM (TZM-bl, NL4-3; range active at 80% cytotoxicity or less).
Cc1cc(C)cc(S(=O)(=O)c2c(C(=O)NCCCNS(=O)(=O)c3ccccc3F)[nH]c3ccc(Cl)cc23)c1 has an EC50 of 15 ± 1.7 nM (MT-4, IIIB).

A few entries again:
For Nc1ncnc2c1ncn2[C@H]1CC[C@@H](CO)O1, the EC90 was 3800 nM (refers to: reverse transcriptase activity; human PBM cells, LAI).
The IC50 of C=C(C)[C@@H]1CC[C@]2(C(=O)OCOC)CC[C@]3(C)[C@H](CC[C@@H]4[C@@]5(C)CC[C@H](OCOC)C(C)(C)[C@@H]5CC[C@]43C)[C@@H]12 is reported as over 10000 nM (refers to: p24; MT4, NL4-3; 96 h).
